Published values of several laboratories.
Every numbered part comes from another study and shows a few of its results, in no order. “And” joins repeats or separate records; there may be more than shown.
UniProt Q08881, sequence (whole entry, looked up): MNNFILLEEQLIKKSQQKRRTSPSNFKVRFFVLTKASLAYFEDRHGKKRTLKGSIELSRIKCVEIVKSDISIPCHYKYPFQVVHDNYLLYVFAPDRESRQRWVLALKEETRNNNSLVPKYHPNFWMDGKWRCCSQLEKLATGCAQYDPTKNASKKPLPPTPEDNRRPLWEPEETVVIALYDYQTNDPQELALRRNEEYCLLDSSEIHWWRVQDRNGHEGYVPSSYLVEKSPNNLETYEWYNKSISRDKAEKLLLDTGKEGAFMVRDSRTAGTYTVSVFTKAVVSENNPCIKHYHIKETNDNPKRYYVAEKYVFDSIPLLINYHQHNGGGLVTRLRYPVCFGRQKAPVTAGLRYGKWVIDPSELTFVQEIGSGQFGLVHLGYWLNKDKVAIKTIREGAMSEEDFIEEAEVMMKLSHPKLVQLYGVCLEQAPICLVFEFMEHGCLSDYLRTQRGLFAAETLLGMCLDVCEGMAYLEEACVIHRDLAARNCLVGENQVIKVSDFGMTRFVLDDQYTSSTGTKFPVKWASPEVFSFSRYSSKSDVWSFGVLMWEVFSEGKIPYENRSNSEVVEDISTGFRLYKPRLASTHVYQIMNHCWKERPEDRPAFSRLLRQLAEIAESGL
UniProt P16234, sequence (whole entry, looked up): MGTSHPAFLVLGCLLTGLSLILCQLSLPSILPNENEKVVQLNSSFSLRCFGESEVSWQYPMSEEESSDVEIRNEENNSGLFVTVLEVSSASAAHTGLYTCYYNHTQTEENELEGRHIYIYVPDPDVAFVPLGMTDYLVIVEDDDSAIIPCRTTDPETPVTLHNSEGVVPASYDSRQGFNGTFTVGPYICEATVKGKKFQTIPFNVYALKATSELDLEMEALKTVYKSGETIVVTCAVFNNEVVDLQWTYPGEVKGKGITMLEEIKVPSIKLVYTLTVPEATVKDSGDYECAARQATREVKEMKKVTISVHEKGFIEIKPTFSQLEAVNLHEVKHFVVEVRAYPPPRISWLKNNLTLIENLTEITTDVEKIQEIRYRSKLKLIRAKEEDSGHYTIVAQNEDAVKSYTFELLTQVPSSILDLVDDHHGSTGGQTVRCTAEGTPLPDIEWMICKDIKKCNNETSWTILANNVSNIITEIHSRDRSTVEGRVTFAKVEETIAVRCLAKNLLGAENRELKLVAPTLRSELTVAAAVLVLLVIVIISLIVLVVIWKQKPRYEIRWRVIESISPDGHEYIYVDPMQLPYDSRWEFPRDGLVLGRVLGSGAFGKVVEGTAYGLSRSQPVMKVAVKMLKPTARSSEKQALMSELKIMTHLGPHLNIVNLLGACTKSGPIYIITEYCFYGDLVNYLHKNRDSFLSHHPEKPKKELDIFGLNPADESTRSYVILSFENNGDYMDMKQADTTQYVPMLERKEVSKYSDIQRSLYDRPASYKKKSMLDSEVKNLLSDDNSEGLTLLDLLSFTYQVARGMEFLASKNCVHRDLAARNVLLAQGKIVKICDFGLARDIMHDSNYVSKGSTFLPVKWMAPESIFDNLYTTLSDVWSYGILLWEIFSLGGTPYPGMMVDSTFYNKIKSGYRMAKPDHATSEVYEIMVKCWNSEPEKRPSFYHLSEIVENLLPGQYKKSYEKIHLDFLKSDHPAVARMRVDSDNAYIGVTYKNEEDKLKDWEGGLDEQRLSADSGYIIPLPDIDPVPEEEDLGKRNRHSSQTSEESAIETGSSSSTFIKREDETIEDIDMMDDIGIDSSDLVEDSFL
UniProt P49137, sequence (whole entry, looked up): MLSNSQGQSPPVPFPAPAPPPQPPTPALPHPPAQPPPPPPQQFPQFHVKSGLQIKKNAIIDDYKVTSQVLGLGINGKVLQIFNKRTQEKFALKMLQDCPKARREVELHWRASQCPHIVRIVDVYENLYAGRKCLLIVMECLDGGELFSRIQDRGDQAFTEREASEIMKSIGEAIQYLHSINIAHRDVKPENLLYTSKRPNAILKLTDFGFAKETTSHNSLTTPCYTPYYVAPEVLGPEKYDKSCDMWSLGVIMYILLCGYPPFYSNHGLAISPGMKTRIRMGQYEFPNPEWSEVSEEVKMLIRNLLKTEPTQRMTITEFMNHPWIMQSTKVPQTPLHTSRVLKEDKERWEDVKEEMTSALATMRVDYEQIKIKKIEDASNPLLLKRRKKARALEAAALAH
UniProt Q8N568, sequence (whole entry, looked up): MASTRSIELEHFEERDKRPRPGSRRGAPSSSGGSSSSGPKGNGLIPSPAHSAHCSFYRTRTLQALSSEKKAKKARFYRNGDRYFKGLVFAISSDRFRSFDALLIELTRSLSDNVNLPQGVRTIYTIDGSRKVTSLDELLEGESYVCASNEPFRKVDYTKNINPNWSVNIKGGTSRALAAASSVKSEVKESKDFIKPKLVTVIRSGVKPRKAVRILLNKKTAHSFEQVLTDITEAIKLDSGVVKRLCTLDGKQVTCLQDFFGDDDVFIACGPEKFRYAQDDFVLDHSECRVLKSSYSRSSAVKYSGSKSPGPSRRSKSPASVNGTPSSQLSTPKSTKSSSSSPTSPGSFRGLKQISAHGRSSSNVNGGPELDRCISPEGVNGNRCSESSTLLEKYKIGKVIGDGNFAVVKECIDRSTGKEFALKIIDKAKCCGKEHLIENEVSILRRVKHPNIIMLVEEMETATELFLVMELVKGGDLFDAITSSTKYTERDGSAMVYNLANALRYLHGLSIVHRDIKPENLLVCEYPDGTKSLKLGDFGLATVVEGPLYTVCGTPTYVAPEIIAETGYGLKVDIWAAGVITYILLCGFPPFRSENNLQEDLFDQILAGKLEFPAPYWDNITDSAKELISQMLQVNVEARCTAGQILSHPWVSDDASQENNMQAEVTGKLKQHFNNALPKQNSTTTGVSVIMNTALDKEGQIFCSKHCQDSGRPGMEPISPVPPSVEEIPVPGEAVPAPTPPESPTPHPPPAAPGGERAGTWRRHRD
UniProt P00519, sequence (whole entry, unmodified, looked up): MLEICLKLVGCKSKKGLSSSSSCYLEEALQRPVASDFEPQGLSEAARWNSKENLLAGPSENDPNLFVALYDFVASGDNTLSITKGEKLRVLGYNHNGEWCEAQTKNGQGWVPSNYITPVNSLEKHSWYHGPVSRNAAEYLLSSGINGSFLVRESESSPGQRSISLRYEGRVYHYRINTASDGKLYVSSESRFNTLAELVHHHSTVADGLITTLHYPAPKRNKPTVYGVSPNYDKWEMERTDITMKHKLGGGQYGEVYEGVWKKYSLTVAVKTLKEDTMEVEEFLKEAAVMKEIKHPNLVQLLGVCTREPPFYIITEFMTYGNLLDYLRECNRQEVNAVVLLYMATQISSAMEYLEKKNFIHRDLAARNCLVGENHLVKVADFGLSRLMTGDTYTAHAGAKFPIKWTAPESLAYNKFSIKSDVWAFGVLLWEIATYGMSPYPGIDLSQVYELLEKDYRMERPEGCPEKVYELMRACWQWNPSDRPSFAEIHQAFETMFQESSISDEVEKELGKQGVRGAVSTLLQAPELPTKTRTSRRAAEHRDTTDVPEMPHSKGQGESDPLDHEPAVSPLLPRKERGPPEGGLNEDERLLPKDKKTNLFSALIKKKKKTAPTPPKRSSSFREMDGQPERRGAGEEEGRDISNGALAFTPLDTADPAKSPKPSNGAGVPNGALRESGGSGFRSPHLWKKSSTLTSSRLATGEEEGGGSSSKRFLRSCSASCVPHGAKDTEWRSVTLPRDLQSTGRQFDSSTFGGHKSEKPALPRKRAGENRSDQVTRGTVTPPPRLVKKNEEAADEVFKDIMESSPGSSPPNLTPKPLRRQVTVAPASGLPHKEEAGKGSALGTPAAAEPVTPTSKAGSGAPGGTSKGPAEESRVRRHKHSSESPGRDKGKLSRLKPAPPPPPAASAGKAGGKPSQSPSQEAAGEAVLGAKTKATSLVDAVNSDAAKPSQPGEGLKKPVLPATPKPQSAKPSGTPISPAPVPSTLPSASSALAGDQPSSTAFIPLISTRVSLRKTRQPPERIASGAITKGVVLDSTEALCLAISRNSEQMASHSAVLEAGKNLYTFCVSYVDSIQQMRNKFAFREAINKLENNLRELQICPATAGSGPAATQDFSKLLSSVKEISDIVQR

Series 1 — cell line: mouse MPNST tumor cells; method: high-content nuclear imaging; refers to: cell number; concentration: 10 µM; time: 12 h; setting: mean of 2 replicates; reference: plate mean; direction: higher = more cells
With C[C@]12C[C@H](O)[C@H]3[C@@H](CCC4=CC(=O)CC[C@@]43C)[C@@H]1CC[C@@H]2C(=O)CO the nuclei count was 3.14 z-score and 1.62 z-score.
With Cc1c[nH]c2ncnc(-c3ccc(NC(=O)N(CCO)c4ccccc4)cc3)c12 the nuclei count was 0.793 z-score.
With C1CCC(N=C(NC23CC4CC(CC(C4)C2)C3)N2CCOCC2)CC1 the nuclei count was -0.201 z-score.

Series 2 — method: competitive binding panel; concentration: 1 µM; reference: vehicle
SMILES: Cc1ccc(NC(=O)c2ccnc(C(F)(F)F)c2)cc1-c1cc(OCCO)nc(N2CCOCC2)c1
For Serine/threonine-protein kinase DCLK2 (DCLK2, Homo sapiens, UniProt Q8N568); refers to: DCAMKL2: remaining binding read 100%.
It gave 100% for remaining binding (Tyrosine-protein kinase ITK/TSK (ITK, Homo sapiens, UniProt Q08881)).
It gave 72% for remaining binding (Platelet-derived growth factor receptor alpha (PDGFRA, Homo sapiens, UniProt P16234)).
The remaining binding was 100% (MAP kinase-activated protein kinase 2 (MAPKAPK2, Homo sapiens, UniProt P49137)).

Series 3 — observed: enzyme activity; action: inhibitor; concentration: 10 µM
Target: Calcium/calmodulin-dependent protein kinase type II subunit alpha (CAMK2A, Homo sapiens, UniProt Q9UQM7)
UniProt Q9UQM7, sequence (whole entry, looked up): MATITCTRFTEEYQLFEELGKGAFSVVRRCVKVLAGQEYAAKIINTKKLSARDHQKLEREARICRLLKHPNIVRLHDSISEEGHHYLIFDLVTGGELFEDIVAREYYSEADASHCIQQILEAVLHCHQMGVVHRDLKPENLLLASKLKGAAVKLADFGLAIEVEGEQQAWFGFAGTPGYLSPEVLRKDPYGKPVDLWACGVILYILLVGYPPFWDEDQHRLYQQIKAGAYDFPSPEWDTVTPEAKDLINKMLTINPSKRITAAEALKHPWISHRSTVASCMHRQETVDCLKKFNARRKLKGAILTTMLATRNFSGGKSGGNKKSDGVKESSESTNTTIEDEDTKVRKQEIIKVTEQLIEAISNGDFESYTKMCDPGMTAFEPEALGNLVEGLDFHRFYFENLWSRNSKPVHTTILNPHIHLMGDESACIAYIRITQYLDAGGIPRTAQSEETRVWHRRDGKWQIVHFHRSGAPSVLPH
O=C1c2ccccc2C(=O)c2cc(O)ccc21 gave an inhibition of -21%.
With O=C(O)CO the inhibition was 33%.
With O=C(O)c1ccc2c(c1)C(=O)c1ccccc1C2=O the inhibition was 3%.
The inhibition of OC(CCN1CCCC1)(c1ccccc1)C1CCCCC1 (stereo not drawn) is reported as -6%.

Mixed results
With Cn1cncc1[C@@](O)(COc1ccc(C#N)cc1-c1ccc(OC(F)(F)F)cc1)c1ccc(C#N)cc1 the remaining binding was 88% (Tyrosine-protein kinase ABL1, phosphorylated (ABL1, Homo sapiens, UniProt P00519, F317I); binding; 1 µM).

Some of these lines once more (series 3):
O=C1c2ccccc2C(=O)c2cc(O)ccc21 gave an inhibition of -21%.
